# Experimental data pooled from the literature.
# Compare with care: the assays were run in different laboratories. “And” joins repeats or separate records; there may be more than shown. ± gives the spread as reported.
# Chain of UniProt P10635 (whole entry, looked up): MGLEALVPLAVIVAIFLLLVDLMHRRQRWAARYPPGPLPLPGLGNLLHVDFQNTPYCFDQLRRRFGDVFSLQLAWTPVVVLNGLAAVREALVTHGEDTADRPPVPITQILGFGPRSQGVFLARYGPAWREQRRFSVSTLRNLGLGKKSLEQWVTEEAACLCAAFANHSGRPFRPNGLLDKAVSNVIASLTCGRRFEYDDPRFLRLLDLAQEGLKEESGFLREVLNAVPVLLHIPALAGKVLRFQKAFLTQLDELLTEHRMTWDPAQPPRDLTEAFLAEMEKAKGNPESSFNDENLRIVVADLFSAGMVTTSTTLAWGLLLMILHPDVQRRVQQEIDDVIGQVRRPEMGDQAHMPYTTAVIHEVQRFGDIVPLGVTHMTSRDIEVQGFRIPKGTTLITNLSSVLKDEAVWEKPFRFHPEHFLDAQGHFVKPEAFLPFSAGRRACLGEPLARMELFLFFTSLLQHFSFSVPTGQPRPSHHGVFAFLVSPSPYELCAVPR
Structure (SMILES),tested on,test,system,setting,scale,measurement,result
CCCC[C@H](NC(C)=O)C(=O)N[C@@H](CO)C(=O)N[C@H](C(=O)N1CCC[C@H]1C(=O)N[C@]1(C)CCCCCCC=CCCC[C@@](C)(C(=O)N[C@@H](Cc2ccccc2)C(=O)N[C@@H](CCCCN)C(=O)N[C@@H](CCCNC(=N)N)C(=O)N[C@@H](CC(C)C)C(=O)N[C@@H](CCC(N)=O)C(N)=O)NC(=O)[C@H](CCCNC(=N)N)NC(=O)[C@H](CCCC)NC(=O)[C@H](CC(C)C)NC(=O)[C@H](CCCNC(=N)N)NC(=O)[C@H](CCCNC(=N)N)NC(=O)[C@H](CCCNC(=N)N)NC1=O)[C@@H](C)O,proteinase K (Tritirachium album),"proteolytic stability, LC-MS",,"25 µM, 307.5 min, pH 7.4",,remaining intact peptide,58.5% and 57.7%
CC(C)OCCOCc1ccc(OCC(O)CN(N=O)C(C)C)cc1 (stereo not shown),Salmonella typhimurium,Ames test,TA100,"15.8 µg/plate, without metabolic activation",relative to: solvent control,revertant fold increase,0.9 fold
Nc1nc2cc(C(=O)c3ccc(F)cc3)ccc2[nH]1,Salmonella typhimurium,Ames preincubation test,TA1537,"4.9 µg per plate, 3 days, without S9",,revertants,14.7 revertants per plate
CC(C)(C)NCC(SS(=O)(=O)O)c1ccccc1 (stereo not shown),Schistosoma mansoni,perfusion day 57,infected Swiss Webster mice,"200 mg/kg daily x4, dosing from day 7",,body weight,34.8 g and 33.2 g and 31.1 g and 30.5 g and 34.3 g
COc1ccc2c(c1)C(C)(C)C(/C=C/C1=C(Oc3ccc(C(=O)NCCCCOc4cc(CN(Cc5ccccn5)Cc5ccccn5)cc(CN(Cc5ccccn5)Cc5ccccn5)c4)cc3)C(=C/C=C3/N(CCCCS(=O)(=O)[O-])c4ccc(OC)cc4C3(C)C)CCC1)=[N+]2CCCCS(=O)(=O)[O-].O=[N+]([O-])[O-].O=[N+]([O-])[O-].[99Tc+].[C-]#[O+].[C-]#[O+].[C-]#[O+].[Zn+2],Staphylococcus aureus,,"BALB/c mice, myositis, thyroid and trachea","intravenous, 0.74 MBq, 12 h post-injection",,tissue uptake,1.3 %ID/g and 1.21 %ID/g and 0.52 %ID/g and 1.58 %ID/g
O=C1NC2(CC2)COc2ncc(F)cc2[C@H]2COCCN2c2ccn3ncc1c3n2,Salmonella typhimurium,Ames test,TA100,"500 µg/plate, 48 h, with: without S9",,revertant colonies,71 ± 9 revertants/plate
Cc1ncsc1-c1ccc(C(C)NC(=O)C2CC(O)CN2C(=O)C(NC(=O)CCCCCCCCCCN2CCCC(Nc3ncc(Cl)c(Nc4ccccc4S(=O)(=O)C(C)C)n3)C2)C(C)(C)C)cc1 (stereo not shown),22Rv1,"RNA-seq, refers to: SLC5A4-AS1",,concentration not given,relative to: DMSO,log2 fold change,-1.26
O=C1C2CC3CC1CC(C(=O)N1CCN(c4ccc([N+](=O)[O-])c5ncccc45)CC1)(C3)C2,Salmonella typhimurium,Ames test,TA98,"0.78 µg/well, without S9",relative to: vehicle,revertant fold increase,1
COC1CN([C@H]2CC[C@H]([C@@]3(C)Oc4c(Cl)cc(C(=O)NCc5c(SC)cc(C)[nH]c5=O)c(C)c4O3)CC2)C1,,"RNA-seq, refers to: DENND2B mouse homolog","mouse, HT-1376 xenograft, whole blood",dose not given,relative to: vehicle,log2 fold change,1.55
CCN(CC)CC#CCNc1ccnc2cc(Cl)ccc12,Salmonella typhimurium,mini-Ames test,TA97a,"62.5 µg/well, with rat liver S9",,revertants,18 revertants/well and 16 revertants/well
CC(=O)N(C)CCN1CCN(c2cnc3c(cc(C(=O)NCc4ccc(Cl)cc4)c(=O)n3CC(=O)N3CC(C)(F)C3)n2)C1=O,human cytomegalovirus,,"MRC-5, AD169-GFP",,relative to: CC50 over EC50,selectivity ratio,> 22.9
CNC(=O)C1CCCN(C(=O)C2CC3CCC2N3C(=O)[C@@H]2C[C@@H](O)CN2C(=O)NCc2cccc(Cl)c2F)C1 (mixture of isomers),"Cytochrome P450 2D6 (CYP2D6, Homo sapiens, UniProt P10635)","enzyme activity, inhibitor, time-dependent inhibition",,"1.85 µM, preincubated without NADPH",relative to: negative control,remaining activity,95.9%
COC(=O)Nc1nc2cc(C(O)c3ccc(F)cc3)ccc2[nH]1 (stereo not shown),Salmonella typhimurium,Ames preincubation test,TA100,"109.4 µg/plate, without S9",,revertants,134 revertants/plate

# Repeated from above:
Structure (SMILES),tested on,test,system,setting,scale,measurement,result
Cc1ncsc1-c1ccc(C(C)NC(=O)C2CC(O)CN2C(=O)C(NC(=O)CCCCCCCCCCN2CCCC(Nc3ncc(Cl)c(Nc4ccccc4S(=O)(=O)C(C)C)n3)C2)C(C)(C)C)cc1 (stereo not shown),22Rv1,"RNA-seq, refers to: SLC5A4-AS1",,concentration not given,relative to: DMSO,log2 fold change,-1.26
CCCC[C@H](NC(C)=O)C(=O)N[C@@H](CO)C(=O)N[C@H](C(=O)N1CCC[C@H]1C(=O)N[C@]1(C)CCCCCCC=CCCC[C@@](C)(C(=O)N[C@@H](Cc2ccccc2)C(=O)N[C@@H](CCCCN)C(=O)N[C@@H](CCCNC(=N)N)C(=O)N[C@@H](CC(C)C)C(=O)N[C@@H](CCC(N)=O)C(N)=O)NC(=O)[C@H](CCCNC(=N)N)NC(=O)[C@H](CCCC)NC(=O)[C@H](CC(C)C)NC(=O)[C@H](CCCNC(=N)N)NC(=O)[C@H](CCCNC(=N)N)NC(=O)[C@H](CCCNC(=N)N)NC1=O)[C@@H](C)O,proteinase K (Tritirachium album),"proteolytic stability, LC-MS",,"25 µM, 307.5 min, pH 7.4",,remaining intact peptide,58.5% and 57.7%
